Measurements collected from several papers.
Numbered parts are unrelated; each lists some results of a single study. “And” joins repeats or separate records; there may be more than shown.
Chain of UniProt P27361 (whole entry, looked up): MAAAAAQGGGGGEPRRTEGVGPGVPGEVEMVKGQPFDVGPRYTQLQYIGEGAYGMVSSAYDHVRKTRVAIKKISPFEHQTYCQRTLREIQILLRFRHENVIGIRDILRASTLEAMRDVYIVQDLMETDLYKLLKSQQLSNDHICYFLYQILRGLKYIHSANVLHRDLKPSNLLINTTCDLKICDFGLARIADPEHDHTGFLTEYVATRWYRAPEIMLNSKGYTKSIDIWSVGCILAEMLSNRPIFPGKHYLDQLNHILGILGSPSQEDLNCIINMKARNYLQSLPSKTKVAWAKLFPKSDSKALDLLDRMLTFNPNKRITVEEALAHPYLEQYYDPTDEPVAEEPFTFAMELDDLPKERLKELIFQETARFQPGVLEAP
Chain of UniProt P52333 (whole entry, looked up): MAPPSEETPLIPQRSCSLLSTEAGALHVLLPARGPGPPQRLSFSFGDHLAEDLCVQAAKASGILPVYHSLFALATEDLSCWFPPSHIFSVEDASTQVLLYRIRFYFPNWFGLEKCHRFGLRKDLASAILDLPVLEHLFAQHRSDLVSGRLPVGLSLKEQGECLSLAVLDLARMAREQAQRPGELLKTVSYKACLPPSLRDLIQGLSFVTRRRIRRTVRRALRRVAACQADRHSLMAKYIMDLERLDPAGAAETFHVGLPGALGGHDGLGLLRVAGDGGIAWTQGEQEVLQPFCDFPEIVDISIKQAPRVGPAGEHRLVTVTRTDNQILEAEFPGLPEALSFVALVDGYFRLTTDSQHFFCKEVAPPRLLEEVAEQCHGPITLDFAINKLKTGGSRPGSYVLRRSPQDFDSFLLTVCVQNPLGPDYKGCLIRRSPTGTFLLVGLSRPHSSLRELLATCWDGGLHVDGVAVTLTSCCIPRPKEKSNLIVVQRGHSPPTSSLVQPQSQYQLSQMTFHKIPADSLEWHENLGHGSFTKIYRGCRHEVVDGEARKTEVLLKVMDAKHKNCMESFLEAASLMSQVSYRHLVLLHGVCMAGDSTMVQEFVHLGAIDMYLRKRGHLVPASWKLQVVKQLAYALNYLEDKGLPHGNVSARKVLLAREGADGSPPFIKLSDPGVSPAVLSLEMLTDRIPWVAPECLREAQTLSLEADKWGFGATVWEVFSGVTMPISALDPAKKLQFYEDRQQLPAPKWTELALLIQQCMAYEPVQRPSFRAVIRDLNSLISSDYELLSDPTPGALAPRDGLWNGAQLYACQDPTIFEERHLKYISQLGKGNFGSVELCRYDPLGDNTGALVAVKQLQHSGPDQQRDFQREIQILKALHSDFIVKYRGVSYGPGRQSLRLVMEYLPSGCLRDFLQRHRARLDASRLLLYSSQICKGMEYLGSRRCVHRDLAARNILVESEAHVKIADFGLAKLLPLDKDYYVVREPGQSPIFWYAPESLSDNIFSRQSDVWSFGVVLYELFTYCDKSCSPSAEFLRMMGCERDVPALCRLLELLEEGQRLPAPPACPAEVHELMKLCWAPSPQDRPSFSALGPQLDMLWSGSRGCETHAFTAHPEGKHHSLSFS
Chain of UniProt Q9HC98 (whole entry, looked up): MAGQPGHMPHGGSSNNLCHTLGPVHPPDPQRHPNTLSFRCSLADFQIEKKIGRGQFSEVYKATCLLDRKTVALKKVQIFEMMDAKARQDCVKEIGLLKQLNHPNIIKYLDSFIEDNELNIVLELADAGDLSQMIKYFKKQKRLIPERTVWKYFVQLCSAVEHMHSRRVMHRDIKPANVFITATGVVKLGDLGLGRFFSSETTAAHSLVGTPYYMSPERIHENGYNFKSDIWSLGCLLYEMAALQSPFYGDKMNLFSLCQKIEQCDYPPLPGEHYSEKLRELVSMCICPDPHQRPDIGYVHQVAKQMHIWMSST
Chain of UniProt Q15349 (whole entry, looked up): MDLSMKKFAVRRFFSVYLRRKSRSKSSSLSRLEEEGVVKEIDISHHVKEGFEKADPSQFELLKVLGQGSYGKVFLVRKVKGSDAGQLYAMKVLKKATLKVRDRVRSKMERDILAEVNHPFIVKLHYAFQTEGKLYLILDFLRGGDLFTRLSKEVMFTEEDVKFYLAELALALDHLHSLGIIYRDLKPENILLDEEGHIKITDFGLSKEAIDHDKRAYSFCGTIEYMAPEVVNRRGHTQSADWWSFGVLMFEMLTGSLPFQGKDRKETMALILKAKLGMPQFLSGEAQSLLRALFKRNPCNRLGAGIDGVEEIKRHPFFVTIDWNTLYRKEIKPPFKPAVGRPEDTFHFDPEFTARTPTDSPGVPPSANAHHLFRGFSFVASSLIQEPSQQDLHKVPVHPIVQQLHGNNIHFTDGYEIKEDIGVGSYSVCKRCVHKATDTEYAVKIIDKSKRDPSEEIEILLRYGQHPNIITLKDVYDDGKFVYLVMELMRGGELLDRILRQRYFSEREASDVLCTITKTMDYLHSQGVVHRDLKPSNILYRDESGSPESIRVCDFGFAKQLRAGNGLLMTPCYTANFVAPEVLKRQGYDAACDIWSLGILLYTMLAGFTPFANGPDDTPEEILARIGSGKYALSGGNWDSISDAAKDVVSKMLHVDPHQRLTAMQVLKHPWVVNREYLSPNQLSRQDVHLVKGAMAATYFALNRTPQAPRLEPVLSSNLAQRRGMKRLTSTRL

Series 1
Target: HLA class I histocompatibility antigen, A alpha chain, allele A*25:01 (Homo sapiens, UniProt P04439)
Observed: peptide-MHC binding
Form: peptide
Tested at: concentration not given
| Molecule | binding |
| --- | --- |
| RWASGVSEI | inactive |
| RAMDVYCHR | inactive |
| GSSDFQVHFLK | inactive |
| RSFPEWDYI | inactive |
| RRFTQAIYD | inactive |
| YAMMSLFDM | inactive |
| FSFFMNENF | inactive |
| LVDENQSWY | inactive |

Series 2
SMILES: CN[C@@H]1C[C@H]2O[C@@](C)([C@@H]1OC)n1c3ccccc3c3c4c(c5c6ccccc6n2c5c31)C(=O)NC4
Observed: enzyme activity
Mode: inhibitor
Tested at: 0.5 µM
Baseline: control
| target | remaining activity |
| --- | --- |
| MAPK3 (Homo sapiens, UniProt P27361) | 97.2% and 88.4% |
| JAK3 (Homo sapiens, UniProt P52333) | 0.738% and 0.781% |
| RPS6KA2 (Homo sapiens, UniProt Q15349) | 1.61% and 3.06% |
| NEK6 (Homo sapiens, UniProt Q9HC98) | 88.6% and 110% |

Series 3
Target: UBE2A UBC core domain (UniProt P49459)
Chain of UniProt P49459 (whole entry, looked up): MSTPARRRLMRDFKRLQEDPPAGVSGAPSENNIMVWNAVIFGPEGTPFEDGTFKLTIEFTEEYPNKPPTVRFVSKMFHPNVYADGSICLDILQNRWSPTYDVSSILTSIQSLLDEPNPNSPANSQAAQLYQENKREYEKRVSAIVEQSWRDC
Method: yeast two-hybrid
Matrix: yeast
Notes: mostly zero background
Baseline: not given
Direction: higher = stronger interaction
B1: DTX1 RING domain (UniProt Q86Y01); chain QKVKNPPDEDCTICMERLVTASGYEGVLRHKGVRPELVGRLGRCGHMYHLLCLVAMYSNGNKDGSLQCPTCKAIYGEKTGTQ
B2: RNF135 RING domain (UniProt Q8IUD6); chain PVWLAEDDLGCIICQGLLDWPATLPCGHSFCRHCLEALWGARDARRWACPTCRQGAAQQPHLR
B3: TRIM48 RING domain (UniProt Q8IWZ4); chain ISQVFQRELTCPICMNYFIDPVTIDCGHSFCRPCFYLNWQDIPILTQCFECIKTIQQRNLKT
B4: Ltn1 RING domain (UniProt Q6A009); chain VDKRFEGVEDCMICFSVIHGFNYSLPKKACRTCKKKFHSACLYKWFTSSNKSTCPLCRETFF
B5: ZNRF3 RING domain (UniProt Q9ULT6); chain DTLSSSSTSDCAICLEKYIDGEELRVIPCTHRFHRKCVDPWLLQHHTCPHCRHNIIEQKGNP
| Molecule | lacZ reporter activity |
| --- | --- |
| KLWDINAHITCRLCSGYLIDATTVTECLHTFCRSCLVKYLEENNTCPTCRIVIHQSHPLQ (PCGF3 RING domain (UniProt Q3KNV8)) | 0 |
| ALDRLEKLLRCSRCTNILREPVCLGGCEHIFCSNCVSDCIGTGCPVCYTPAWIQDLKI (BARD1 RING domain (UniProt Q99728)) | 0 |
| B1 (DTX1 RING domain) | 0 |
| KITELNPHLMCVLCGGYFIDATTIIECLHSFCKTCIVRYLETSKYCPICDVQVHKTRPLL (BMI1 RING domain (UniProt P35226)) | 0 |
| B2 (RNF135 RING domain) | 0 |
| B3 (TRIM48 RING domain) | 0 |
| B4 (Ltn1 RING domain) | 0 |
| B5 (ZNRF3 RING domain) | 0 |

Further values, each from its own experiment
| Compound | cell line | test | setting | how to read | endpoint | result |
| --- | --- | --- | --- | --- | --- | --- |
| CN(C)[C@@H]1C(=O)C(C(N)=O)=C(O)[C@@]2(O)C(=O)C3=C(O)c4c(O)cccc4[C@@](C)(O)[C@H]3C[C@@H]12 | mouse MPNST tumor cells | high-content nuclear imaging, item: cell number | 10 µM, 12 h, mean of 2 replicates | baseline: plate mean, higher = more cells | nuclei count | 0.71 z-score |
